Assay results from different studies.
Organism: Acinetobacter baumannii

| SMILES | assay | system | conditions | MIC |
| --- | --- | --- | --- | --- |
| CC1(C)[C@H](NC(=O)/C(=N\OC2(C(=O)O)CCCCC2)c2csc(N)n2)C(=O)N1OS(=O)(=O)O | agar dilution | 16-16 |  | > 64 µg/mL |
| CCCCCCCC(=O)N[C@@H](CCN)C(=O)N[C@H](C(=O)N[C@@H](CCCN)C(=O)N[C@H]1CCNC(=O)[C@H]([C@@H](C)O)NC(=O)[C@H](CCN)NC(=O)[C@H](CCN)NC(=O)[C@H]([C@@H](C)O)NC(=O)[C@@H](CC(C)C)NC(=O)[C@H](CCN)NC1=O)[C@@H](C)O |  | ATCC 17978, CAMHB | 20 h, 37 °C | 2 µg/mL |
| CCCCCCCC(=O)N[C@@H](CCN)C(=O)N[C@H](C(=O)N[C@@H](CCN)C(=O)N[C@H]1CCNC(=O)[C@H]([C@@H](C)O)NC(=O)[C@H](C)NC(=O)[C@H](CCN)NC(=O)[C@H](CC(C)C)NC(=O)[C@@H](Cc2ccccc2)NC(=O)[C@H](CCN)NC1=O)[C@@H](C)O | broth microdilution | ATCC 19606 | 20 h, 37 °C | > 512 µg/mL |
| CCCCCCCCCCCCCCCCCCn1cc(CN(CCC(=O)NCCN(CCC(=O)NCCN(CCC(=O)NCCN(C)C)CCC(=O)NCCN(C)C)CCC(=O)NCCN(CCC(=O)NCCN(C)C)CCC(=O)NCCN(C)C)CCC(=O)NCCN(CCC(=O)NCCN(CCC(=O)NCCN(C)C)CCC(=O)NCCN(C)C)CCC(=O)NCCN(CCC(=O)NCCN(C)C)CCC(=O)NCCN(C)C)nn1 | LB broth microdilution |  | 18 h | 6 µg/mL |
| COc1cc(C(=O)O)ccc1NC(=O)c1ccc(NC(=O)c2ccc(NC(=O)[C@H](Cc3c[nH]nn3)NC(=O)c3ccc(NC(=O)/C(C)=C/c4ccc(O)cc4)cc3)cc2)cc1O | broth microdilution | ciprofloxacin-resistant |  | 8 µg/mL |
| C#CCOc1ccc(CN[C@@]2(C)C[C@H](O[C@H]3[C@H](Oc4c5cc6cc4Oc4ccc(cc4Cl)[C@@H](O)[C@@H](NC(=O)[C@@H](CC(C)C)NC)C(=O)N[C@@H](CC(N)=O)C(=O)N[C@H]6C(=O)N[C@H]4C(=O)N[C@H](C(=O)N[C@H](C(=O)N[C@@H](CCCNC(=N)N)C(N)=O)c6cc(O)cc(O)c6-c6cc4ccc6O)[C@H](O)c4ccc(c(Cl)c4)O5)O[C@H](CO)[C@@H](O)[C@@H]3O)O[C@@H](C)[C@H]2O)cc1OC | broth microdilution | BAA-747, cation-adjusted Mueller-Hinton broth | 18 to 20 h, 37 °C, 0.002% polysorbate 80 | 128 µg/mL |
| CC[C@H]1OC(=O)[C@H](C)[C@@H](OC(=O)Cc2c(F)cc([N+](=O)[O-])cc2F)[C@H](C)[C@@H](O[C@@H]2O[C@H](C)C[C@H](N(C)C)[C@H]2O)[C@](C)(OC)C[C@@H](C)C(=O)[C@H](C)[C@@H](O)[C@]1(C)O | microbial growth | ATCC19606 DSM30007 |  | 8 to 32 µg/mL |
| CCCCCCn1cc[n+](CCCCOc2cc(OCCCC[n+]3ccn(CCCCCC)c3)cc(OCCCC[n+]3ccn(CCCCCC)c3)c2)c1.[Br-].[Br-].[Br-] |  | ATCC 17978 |  | 250 µM |
| CCCCCCC#Cc1cncc(-c2nnc(SCc3cc([N+](=O)[O-])cc([N+](=O)[O-])c3)n2C)c1 | microbial growth, broth dilution | ATCC17978 |  | > 64 µg/mL |
| CCCCCCCC(=O)N[C@@H](CCN)C(=O)N[C@H](C(=O)N[C@@H](C)C(=O)N[C@H]1CCNC(=O)[C@H]([C@@H](C)O)NC(=O)[C@H](CCN)NC(=O)[C@H](CCN)NC(=O)[C@H](CC(C)C)NC(=O)[C@@H](Cc2ccccc2)NC(=O)[C@H](CCN)NC1=O)[C@@H](C)O | CLSI broth microdilution | 246-01-C.246, CAMHB | 20 h, 37 °C | 4 µg/mL |
| CC[C@H](C)[C@@H]1NC(=O)[C@@H](CC(C)C)NC(=O)[C@H](CCN)NC(=O)[C@@H](NC(=O)[C@@H](CO)NC(=O)[C@@H](NC(=O)[C@H](CCN)NC(=O)c2ccc(-c3ccccc3)cc2)[C@@H](C)O)CCNC(=O)[C@H](CC(C)C)NC(=O)[C@H](CCN)NC(=O)[C@H](CCN)NC1=O | broth microdilution | ATCC 19606, colistin-susceptible |  | 1 to 2 µg/mL |
| CCCCCCCC(=O)N[C@@H](CCN)C(=O)N[C@H](C(=O)N[C@@H](CCN)C(=O)N[C@H]1CCNC(=O)[C@H]([C@@H](C)O)NC(=O)[C@H](CCN)NC(=O)[C@H](CCN)NC(=O)[C@H](CC(C)C)NC(=O)[C@@H](Cc2ccccc2)NC(=O)[C@H](CCN)NC1=O)[C@@H](C)O | CLSI broth microdilution | 246-01-C.246, CAMHB | 20 h, 37 °C | 0.25 µg/mL |
| CCCCCCCCCCCC[N+](C)(C)CCCCCCCCCCOc1cc(OCCCCCCCCCC[N+](C)(C)CCCCCCCCCCCC)cc(OCCCCCCCCCC[N+](C)(C)CCCCCCCCCCCC)c1.[Br-].[Br-].[Br-] |  | ATCC 17978 |  | 250 µM |
| COc1ccc2ccc(O)c(/C=N/[C@H]3CCCC[C@H]3/N=C/c3cc(C)ccc3O)c2c1 | bacterial growth, broth microdilution | carbapenem-resistant clinical isolate |  | > 40 µM |
| CCCCCCCC(=O)N[C@@H](CN)C(=O)N[C@H](C(=O)N[C@@H](CN)C(=O)N[C@H]1CCNC(=O)[C@H]([C@@H](C)O)NC(=O)[C@H](CCN)NC(=O)[C@H](CCN)NC(=O)[C@H]([C@@H](C)O)NC(=O)[C@@H](CC(C)C)NC(=O)[C@H](CCN)NC1=O)[C@@H](C)O |  | ATCC 19606, CAMHB | 20 h, 37 °C | 0.5 µg/mL |
| CCCCCCCCn1cc[n+](CCCCCCCCOc2cc(OCCCCCCCC[n+]3ccn(CCCCCCCC)c3)cc(OCCCCCCCC[n+]3ccn(CCCCCCCC)c3)c2)c1.[Br-].[Br-].[Br-] |  | ATCC 17978 |  | 2 µM |

| SMILES | assay | system | conditions | MIC |
| --- | --- | --- | --- | --- |
| CCCCCCCC(=O)N[C@@H](CCN)C(=O)N[C@H](C(=O)N[C@@H](CCN)C(=O)N[C@H]1CCNC(=O)[C@H]([C@@H](C)O)NC(=O)[C@H](CCN)NC(=O)[C@H](C)NC(=O)[C@H](CC(C)C)NC(=O)[C@@H](Cc2ccccc2)NC(=O)[C@H](CCN)NC1=O)[C@@H](C)O | broth microdilution | ATCC 17978 | 20 h, 37 °C | 8 µg/mL |
| Oc1c(Br)cc(Br)c2nc3c(C(F)(F)F)cc(C(F)(F)F)cc3nc12 |  | 1794 |  | 75 µM |
| CC1(C)[C@H](NC(=O)/C(=N\OC2(C(=O)O)CCCC2)c2csc(N)n2)C(=O)N1OS(=O)(=O)O | agar dilution | 16-16 |  | > 64 µg/mL |
| COc1ccc2ccc(O)c(/C=N/[C@H]3CCCC[C@H]3/N=C/c3ccc(C)cc3O)c2c1 | bacterial growth, broth microdilution | carbapenem-resistant clinical isolate |  | > 40 µM |
| COc1cc(C(=O)O)ccc1NC(=O)c1ccc(NC(=O)c2ccc(NC(=O)[C@H](Cc3c[nH]nn3)NC(=O)c3ccc(NC(=O)/C(C)=C/c4ccc(O)cc4)cc3)cc2)c(OC)c1O | broth microdilution | ciprofloxacin-resistant |  | 8 µg/mL |
| CCCCCCCC(=O)N[C@@H](CCN)C(=O)N[C@H](C(=O)N[C@@H](CN)C(=O)N[C@H]1CCNC(=O)[C@H]([C@@H](C)O)NC(=O)[C@H](CCN)NC(=O)[C@H](CCN)NC(=O)[C@H]([C@@H](C)O)NC(=O)[C@@H](CC(C)C)NC(=O)[C@H](CCCN)NC1=O)[C@@H](C)O |  | ATCC 17978, CAMHB | 20 h, 37 °C | > 32 µg/mL |
| CC[C@H]1OC(=O)[C@H](C)[C@@H](OC(=O)Cc2ccc(Cl)cc2)[C@H](C)[C@@H](O[C@@H]2O[C@H](C)C[C@H](N(C)C)[C@H]2O)[C@](C)(OC)C[C@@H](C)C(=O)[C@H](C)[C@@H](O)[C@]1(C)O | microbial growth | ATCC19606 |  | > 32 µg/mL |
| C=CCO/N=C(\C(=O)N[C@@H]1C(=O)N(S(=O)(=O)O)[C@H]1C)c1csc(N)n1 | agar dilution | ATCC 19606 |  | 8 µg/mL |
| CC[C@H]1OC(=O)[C@H](C)[C@@H](OC(=O)Cc2c(F)cccc2F)[C@H](C)[C@@H](O[C@@H]2O[C@H](C)C[C@H](N(C)C)[C@H]2O)[C@](C)(OC)C[C@@H](C)C(=O)[C@H](C)[C@@H](O)[C@]1(C)O |  | DSM 30007 | added: colistin sulfate at 0.5 x MIC | 0.25 µM |
| CC(C)(O/N=C(\C(=O)N[C@@H]1C(=O)N(OS(=O)(=O)O)C1(C)C)c1nsc(N)n1)C(=O)O | agar dilution | ATCC 19606 |  | 32 µg/mL |
| C#CCOc1ccc(CN[C@@]2(C)C[C@H](O[C@H]3[C@H](Oc4c5cc6cc4Oc4ccc(cc4Cl)[C@@H](O)[C@@H](NC(=O)[C@@H](CC(C)C)NC)C(=O)N[C@@H](CC(N)=O)C(=O)N[C@H]6C(=O)N[C@H]4C(=O)N[C@H](C(=O)N[C@H](C(=O)NCC(N)=O)c6cc(O)cc(O)c6-c6cc4ccc6O)[C@H](O)c4ccc(c(Cl)c4)O5)O[C@H](CO)[C@@H](O)[C@@H]3O)O[C@@H](C)[C@H]2O)cc1OC | broth microdilution | ATCC 17978, cation-adjusted Mueller-Hinton broth | 18 to 20 h, 37 °C, 0.002% polysorbate 80 | 128 µg/mL |
| CC1(C)C(NC(=O)C(=NOC2(C(=O)O)CC2)c2csc(N)n2)C(=O)N1OS(=O)(=O)O (stereo not shown) | agar dilution | 16-16 |  | 64 µg/mL |
| CC[C@H](C)[C@H](NC(=O)[C@@H](CCCNC(=N)N)NC(=O)[C@H](CCCNC(=N)N)NC(=O)[C@@H]1CCCN1C(=O)[C@@H]1CCCN1C(=O)[C@H](CCCCN)NC(=O)[C@@H]1CCCN1C(=O)[C@H](CCCNC(=N)N)NC(=O)[C@@H]1CCCN1C(=O)[C@H](CC(C)C)NC(=O)[C@H](Cc1ccc(O)cc1)NC(=O)[C@@H]1CCCN1C(=O)[C@@H]1CCCN1C(=O)[C@H](CCCCN)NC(=O)[C@H](CC(=O)O)NC(=O)[C@@H](N)C(C)C)C(=O)N[C@@H](Cc1ccc(O)cc1)C(=O)N[C@@H](CC(N)=O)C(=O)N[C@H](CCCNC(=N)N)C(N)=O | broth microdilution | DSM 30008 | 18 h, 37 °C, 25% MHB2 | 64 µg/mL |
| CC1(C)C(NC(=O)C(=NOC2(C(=O)O)CCC2)c2csc(N)n2)C(=O)N1OS(=O)(=O)O (stereo not shown) | agar dilution | ATCC 19606 |  | 16 µg/mL |
| CCCCCC[N+](C)(C)CCCCOc1cc(OCCCC[N+](C)(C)CCCCCC)cc(OCCCC[N+](C)(C)CCCCCC)c1.[Br-].[Br-].[Br-] |  | ATCC 17978 |  | > 250 µM |

A few entries again:
| SMILES | assay | system | conditions | MIC |
| --- | --- | --- | --- | --- |
| C#CCOc1ccc(CN[C@@]2(C)C[C@H](O[C@H]3[C@H](Oc4c5cc6cc4Oc4ccc(cc4Cl)[C@@H](O)[C@@H](NC(=O)[C@@H](CC(C)C)NC)C(=O)N[C@@H](CC(N)=O)C(=O)N[C@H]6C(=O)N[C@H]4C(=O)N[C@H](C(=O)N[C@H](C(=O)NCC(N)=O)c6cc(O)cc(O)c6-c6cc4ccc6O)[C@H](O)c4ccc(c(Cl)c4)O5)O[C@H](CO)[C@@H](O)[C@@H]3O)O[C@@H](C)[C@H]2O)cc1OC | broth microdilution | ATCC 17978, cation-adjusted Mueller-Hinton broth | 18 to 20 h, 37 °C, 0.002% polysorbate 80 | 128 µg/mL |
| CCCCCCCCCCCCCCCCCCn1cc(CN(CCC(=O)NCCN(CCC(=O)NCCN(CCC(=O)NCCN(C)C)CCC(=O)NCCN(C)C)CCC(=O)NCCN(CCC(=O)NCCN(C)C)CCC(=O)NCCN(C)C)CCC(=O)NCCN(CCC(=O)NCCN(CCC(=O)NCCN(C)C)CCC(=O)NCCN(C)C)CCC(=O)NCCN(CCC(=O)NCCN(C)C)CCC(=O)NCCN(C)C)nn1 | LB broth microdilution |  | 18 h | 6 µg/mL |
| COc1ccc2ccc(O)c(/C=N/[C@H]3CCCC[C@H]3/N=C/c3ccc(C)cc3O)c2c1 | bacterial growth, broth microdilution | carbapenem-resistant clinical isolate |  | > 40 µM |
| C=CCO/N=C(\C(=O)N[C@@H]1C(=O)N(S(=O)(=O)O)[C@H]1C)c1csc(N)n1 | agar dilution | ATCC 19606 |  | 8 µg/mL |
